{"data": "Experimental data from different studies", "note": "Every numbered part comes from another study and shows a few of its results, in no order.", "sequence of UniProt P46098 (whole entry, looked up)": "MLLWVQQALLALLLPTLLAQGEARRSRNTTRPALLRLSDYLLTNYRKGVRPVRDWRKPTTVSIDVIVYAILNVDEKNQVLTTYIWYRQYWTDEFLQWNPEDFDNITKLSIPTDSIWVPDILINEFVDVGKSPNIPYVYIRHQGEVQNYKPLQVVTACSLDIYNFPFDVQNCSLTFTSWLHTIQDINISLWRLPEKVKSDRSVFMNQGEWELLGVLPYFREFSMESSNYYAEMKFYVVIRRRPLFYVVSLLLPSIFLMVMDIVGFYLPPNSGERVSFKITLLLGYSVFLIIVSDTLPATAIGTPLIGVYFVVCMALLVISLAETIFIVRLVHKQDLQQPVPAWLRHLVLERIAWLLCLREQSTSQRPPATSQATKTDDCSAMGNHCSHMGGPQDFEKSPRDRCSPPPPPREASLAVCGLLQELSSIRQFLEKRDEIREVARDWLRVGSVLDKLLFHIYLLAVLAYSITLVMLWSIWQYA", "sequence of UniProt O14757 (whole entry, looked up)": "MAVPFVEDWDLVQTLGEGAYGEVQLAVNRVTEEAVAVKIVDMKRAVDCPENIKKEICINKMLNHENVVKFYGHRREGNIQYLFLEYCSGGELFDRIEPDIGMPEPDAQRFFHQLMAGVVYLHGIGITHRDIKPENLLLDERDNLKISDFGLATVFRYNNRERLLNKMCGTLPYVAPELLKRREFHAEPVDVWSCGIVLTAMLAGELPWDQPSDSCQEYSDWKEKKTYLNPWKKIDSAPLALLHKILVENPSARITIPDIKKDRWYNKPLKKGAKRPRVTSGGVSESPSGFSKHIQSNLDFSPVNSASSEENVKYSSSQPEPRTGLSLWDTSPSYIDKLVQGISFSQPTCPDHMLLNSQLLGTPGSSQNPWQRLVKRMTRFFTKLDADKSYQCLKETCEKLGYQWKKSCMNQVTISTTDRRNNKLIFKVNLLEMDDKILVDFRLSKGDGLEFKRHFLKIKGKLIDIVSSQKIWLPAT", "sequence of UniProt Q05655 (whole entry, looked up)": "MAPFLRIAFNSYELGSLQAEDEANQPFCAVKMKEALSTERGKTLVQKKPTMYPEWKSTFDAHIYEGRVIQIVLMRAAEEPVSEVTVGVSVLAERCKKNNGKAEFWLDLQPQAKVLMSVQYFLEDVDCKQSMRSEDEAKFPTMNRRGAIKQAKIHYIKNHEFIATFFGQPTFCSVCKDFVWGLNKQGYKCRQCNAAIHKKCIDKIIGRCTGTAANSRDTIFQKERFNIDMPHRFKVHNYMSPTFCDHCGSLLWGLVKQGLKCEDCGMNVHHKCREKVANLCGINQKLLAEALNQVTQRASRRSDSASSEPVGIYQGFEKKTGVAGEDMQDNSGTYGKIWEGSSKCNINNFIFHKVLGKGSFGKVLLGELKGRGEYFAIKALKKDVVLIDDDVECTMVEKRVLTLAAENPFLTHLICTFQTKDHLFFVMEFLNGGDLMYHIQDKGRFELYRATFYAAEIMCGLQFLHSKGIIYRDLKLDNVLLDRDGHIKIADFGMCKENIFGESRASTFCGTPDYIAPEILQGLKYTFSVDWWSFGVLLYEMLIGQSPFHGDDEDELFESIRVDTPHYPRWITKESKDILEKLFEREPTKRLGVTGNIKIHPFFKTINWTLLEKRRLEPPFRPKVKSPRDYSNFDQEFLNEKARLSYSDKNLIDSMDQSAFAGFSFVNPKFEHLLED", "sequence of UniProt P41595 (whole entry, looked up)": "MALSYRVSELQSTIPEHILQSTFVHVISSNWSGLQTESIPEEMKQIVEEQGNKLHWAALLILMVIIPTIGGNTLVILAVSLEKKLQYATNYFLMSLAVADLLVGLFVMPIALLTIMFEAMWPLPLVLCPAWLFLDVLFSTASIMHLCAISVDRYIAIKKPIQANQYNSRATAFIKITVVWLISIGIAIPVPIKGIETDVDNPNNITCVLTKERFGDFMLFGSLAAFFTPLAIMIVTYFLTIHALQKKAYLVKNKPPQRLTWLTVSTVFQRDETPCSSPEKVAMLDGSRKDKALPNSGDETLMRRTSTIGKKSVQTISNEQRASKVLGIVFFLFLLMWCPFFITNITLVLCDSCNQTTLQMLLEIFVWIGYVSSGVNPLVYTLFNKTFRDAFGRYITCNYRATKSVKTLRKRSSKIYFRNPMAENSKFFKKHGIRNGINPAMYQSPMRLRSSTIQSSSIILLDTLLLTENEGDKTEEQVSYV", "sequence of UniProt P48729 (whole entry, looked up)": "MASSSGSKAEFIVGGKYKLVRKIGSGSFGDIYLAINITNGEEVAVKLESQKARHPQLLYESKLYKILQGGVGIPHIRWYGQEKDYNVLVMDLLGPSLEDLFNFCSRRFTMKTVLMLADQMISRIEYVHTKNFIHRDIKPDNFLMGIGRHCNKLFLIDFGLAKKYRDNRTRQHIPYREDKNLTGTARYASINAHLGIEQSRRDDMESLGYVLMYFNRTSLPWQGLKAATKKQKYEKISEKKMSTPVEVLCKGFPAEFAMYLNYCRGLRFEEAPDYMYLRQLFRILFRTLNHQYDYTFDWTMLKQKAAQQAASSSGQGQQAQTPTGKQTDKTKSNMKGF"}
{"data": "Series 1", "Compound": "O=C(O)/C=C/c1cc(Br)c(Br)c(Br)c1Br", "effect on": "enzyme activity", "mode": "inhibitor", "tested at": "0.5 µM", "relative to": "control"}
{"target": "Cyclin-dependent kinase 9, with cyclin T1 (CDK9, Homo sapiens, UniProt P50750)", "remaining activity": "58.9%"}
{"target": "MKNK2 (Homo sapiens, UniProt Q9HBH9)", "remaining activity": "53.8%"}
{"target": "NEK4 (Homo sapiens, UniProt P51957)", "remaining activity": "54.6%"}
{"target": "CSNK1A1 (Homo sapiens, UniProt P48729)", "remaining activity": "79.3%"}
{"target": "KIT (Homo sapiens, UniProt P10721)", "remaining activity": "89.2%"}
{"target": "PLK2 (Homo sapiens, UniProt Q9NYY3)", "remaining activity": "51.5%"}
{"target": "PRKCI (Homo sapiens, UniProt P41743)", "remaining activity": "97.3%"}
{"target": "EPHA5 (Homo sapiens, UniProt P54756)", "remaining activity": "88.7%"}
{"target": "IRAK4 (Homo sapiens, UniProt Q9NWZ3)", "remaining activity": "86.6%"}
{"target": "MAP4K2 (Homo sapiens, UniProt Q12851)", "remaining activity": "89.3%"}
{"target": "AKT3 (Homo sapiens, UniProt Q9Y243)", "remaining activity": "92.7%"}
{"target": "MAPK12 (Homo sapiens, UniProt P53778)", "remaining activity": "103%"}
{"target": "MAP3K10 (Homo sapiens, UniProt Q02779)", "remaining activity": "92.3%"}
{"target": "CHEK1 (Homo sapiens, UniProt O14757)", "remaining activity": "135%"}
{"target": "LYN (Homo sapiens, UniProt P07948)", "remaining activity": "99.3%"}
{"target": "MAPK13 (Homo sapiens, UniProt O15264)", "remaining activity": "98.5%"}
{"target": "LRRK2 (Homo sapiens, UniProt Q5S007)", "remaining activity": "87.6%"}
{"target": "BTK (Homo sapiens, UniProt Q06187)", "remaining activity": "97.8%"}
{"target": "CSNK2A1 (Homo sapiens, UniProt P68400)", "remaining activity": "13.1%"}
{"target": "PRKCD (Homo sapiens, UniProt Q05655)", "remaining activity": "93.9%"}
{"target": "MAP2K6 (Homo sapiens, UniProt P52564)", "remaining activity": "96.1%"}
{"data": "Series 2", "target": "DNA polymerase theta, ATPase domain (POLQ, Homo sapiens, UniProt O75417)", "effect on": "enzyme activity", "mode": "inhibitor", "tested at": "77 µM", "relative to": "untreated", "sequence of UniProt O75417 (whole entry, unmodified, looked up)": "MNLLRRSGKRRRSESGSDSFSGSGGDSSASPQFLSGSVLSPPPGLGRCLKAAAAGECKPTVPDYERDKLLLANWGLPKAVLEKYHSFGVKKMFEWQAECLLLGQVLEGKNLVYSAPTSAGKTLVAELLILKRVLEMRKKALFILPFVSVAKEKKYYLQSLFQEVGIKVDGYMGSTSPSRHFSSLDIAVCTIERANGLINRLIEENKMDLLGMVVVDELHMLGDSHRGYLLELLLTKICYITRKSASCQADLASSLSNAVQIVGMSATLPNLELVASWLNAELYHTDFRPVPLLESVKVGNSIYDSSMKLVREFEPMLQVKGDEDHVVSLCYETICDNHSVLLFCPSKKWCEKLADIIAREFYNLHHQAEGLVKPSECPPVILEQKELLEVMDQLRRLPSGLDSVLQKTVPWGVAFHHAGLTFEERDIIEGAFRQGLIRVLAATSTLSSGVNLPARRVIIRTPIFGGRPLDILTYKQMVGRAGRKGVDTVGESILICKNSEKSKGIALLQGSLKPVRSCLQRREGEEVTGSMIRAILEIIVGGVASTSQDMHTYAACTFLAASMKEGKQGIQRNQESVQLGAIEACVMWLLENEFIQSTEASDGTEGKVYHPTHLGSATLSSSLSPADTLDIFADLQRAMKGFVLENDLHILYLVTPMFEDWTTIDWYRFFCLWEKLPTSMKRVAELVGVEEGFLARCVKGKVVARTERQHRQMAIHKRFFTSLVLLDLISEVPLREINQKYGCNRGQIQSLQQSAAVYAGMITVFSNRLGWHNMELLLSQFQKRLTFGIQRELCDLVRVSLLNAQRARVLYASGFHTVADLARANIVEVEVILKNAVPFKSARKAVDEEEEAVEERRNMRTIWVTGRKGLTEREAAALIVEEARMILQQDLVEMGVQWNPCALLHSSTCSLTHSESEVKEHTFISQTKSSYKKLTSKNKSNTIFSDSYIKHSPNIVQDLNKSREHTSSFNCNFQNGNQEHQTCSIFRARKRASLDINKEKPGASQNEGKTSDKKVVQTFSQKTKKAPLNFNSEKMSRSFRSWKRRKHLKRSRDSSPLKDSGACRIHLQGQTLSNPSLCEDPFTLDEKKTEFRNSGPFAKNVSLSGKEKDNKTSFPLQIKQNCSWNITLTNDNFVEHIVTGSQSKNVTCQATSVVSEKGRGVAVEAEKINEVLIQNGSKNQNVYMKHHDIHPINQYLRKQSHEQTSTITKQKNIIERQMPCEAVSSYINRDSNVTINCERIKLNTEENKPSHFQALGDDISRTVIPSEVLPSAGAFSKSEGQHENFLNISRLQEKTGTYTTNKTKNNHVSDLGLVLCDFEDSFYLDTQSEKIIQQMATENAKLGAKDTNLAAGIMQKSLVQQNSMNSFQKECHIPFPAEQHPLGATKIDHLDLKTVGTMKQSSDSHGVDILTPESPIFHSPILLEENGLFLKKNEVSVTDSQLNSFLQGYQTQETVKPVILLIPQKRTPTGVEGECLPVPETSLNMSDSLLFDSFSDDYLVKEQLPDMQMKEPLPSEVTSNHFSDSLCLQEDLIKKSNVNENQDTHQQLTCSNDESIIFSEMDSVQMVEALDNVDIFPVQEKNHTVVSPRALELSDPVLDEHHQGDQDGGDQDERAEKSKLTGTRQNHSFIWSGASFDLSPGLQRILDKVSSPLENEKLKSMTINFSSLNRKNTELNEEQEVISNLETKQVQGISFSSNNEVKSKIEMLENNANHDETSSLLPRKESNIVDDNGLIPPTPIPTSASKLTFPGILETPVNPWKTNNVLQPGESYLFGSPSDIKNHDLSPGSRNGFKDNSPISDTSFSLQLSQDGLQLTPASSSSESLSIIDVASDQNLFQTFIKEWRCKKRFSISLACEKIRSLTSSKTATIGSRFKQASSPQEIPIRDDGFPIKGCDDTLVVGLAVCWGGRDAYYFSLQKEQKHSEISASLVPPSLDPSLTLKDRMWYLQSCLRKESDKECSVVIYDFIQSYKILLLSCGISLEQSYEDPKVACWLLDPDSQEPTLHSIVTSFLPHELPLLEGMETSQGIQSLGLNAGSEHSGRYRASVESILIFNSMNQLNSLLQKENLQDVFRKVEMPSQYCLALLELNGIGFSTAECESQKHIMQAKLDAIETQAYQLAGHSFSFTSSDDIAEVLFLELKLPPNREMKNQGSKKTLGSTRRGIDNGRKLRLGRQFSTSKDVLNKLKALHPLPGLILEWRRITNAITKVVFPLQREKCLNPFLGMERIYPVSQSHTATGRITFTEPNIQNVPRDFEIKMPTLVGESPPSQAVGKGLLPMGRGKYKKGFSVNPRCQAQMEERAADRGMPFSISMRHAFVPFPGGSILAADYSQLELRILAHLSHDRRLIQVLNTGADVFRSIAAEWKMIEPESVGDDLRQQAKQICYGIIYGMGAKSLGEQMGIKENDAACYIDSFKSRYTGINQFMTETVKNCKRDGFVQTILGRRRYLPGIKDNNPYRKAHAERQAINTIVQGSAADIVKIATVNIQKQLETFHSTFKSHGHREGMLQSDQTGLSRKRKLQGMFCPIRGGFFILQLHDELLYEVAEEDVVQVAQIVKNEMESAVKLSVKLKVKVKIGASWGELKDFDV"}
{"Compound": "COc1cc(F)c(F)c(Nc2ccc(I)cc2F)c1NS(=O)(=O)C1(C[C@H](O)CO)CC1", "remaining activity": "93.7%"}
{"Compound": "CC(=O)Nc1cc2ccccc2oc1=O", "remaining activity": "87.8%"}
{"Compound": "COc1cc(CNC(=O)CCCC/C=C/C(C)C)ccc1O", "remaining activity": "96.1%"}
{"Compound": "CC1=NN(c2ccc(C)c(C)c2)C(=O)/C1=N\\Nc1cccc(-c2cccc(C(=O)O)c2)c1O", "remaining activity": "91.6%"}
{"Compound": "CCCCCCCCCCC[C@@H](C[C@@H]1OC(=O)[C@H]1CCCCCC)OC(=O)[C@H](CC(C)C)NC=O", "remaining activity": "88%"}
{"Compound": "CC1CS(=O)(=O)CCN1/N=C/c1ccc([N+](=O)[O-])o1 (centres unmarked)", "remaining activity": "94.3%"}
{"Compound": "CCCCCCCCCCCCCCCC(=O)OC[C@H](O)[C@H]1OC(=O)C(O)=C1O", "remaining activity": "58.9%"}
{"Compound": "C[C@@H](O)[C@H]1C(=O)N2C(C(=O)O)=C(SCCNC=N)C[C@H]12", "remaining activity": "98.9%"}
{"Compound": "CS(=O)(=O)Nc1ccc([N+](=O)[O-])cc1Oc1ccccc1", "remaining activity": "97.9%"}
{"Compound": "COc1cc(C(O)CO)ccc1OS(=O)(=O)O (centres unmarked)", "remaining activity": "102%"}
{"data": "Series 3", "Structure (SMILES)": "O[C@]1(C(F)(F)F)CCCC[C@H]1Nc1ccc(F)cc1", "effect on": "binding", "technique": "radioligand binding", "tested at": "10 µM"}
{"target": "HTR1D (Homo sapiens, UniProt P28221)", "inhibition [%]": -14.3}
{"target": "HTR3A (Homo sapiens, UniProt P46098)", "inhibition [%]": 39}
{"target": "HTR2B (Homo sapiens, UniProt P41595)", "inhibition [%]": -14.9}
{"data": "Series 4", "host": "mouse", "matrix": "microsomes or S9", "tested at": "2 µM", "time": "0.5 h"}
{"SMILES": "Cc1oc(-c2nc(C#N)c(N(C)C)o2)cc1S(=O)(=O)N(C)c1ccccc1", "remaining compound [%]": 95.7}
{"SMILES": "CC(Oc1ccc(F)cc1Br)C(=O)NCC(C)c1ccncc1 (centres unmarked)", "remaining compound [%]": 1.84}
{"SMILES": "CC(C(=O)N(C)C)S(=O)(=O)N1CCN(C)c2ccncc21 (centres unmarked)", "remaining compound [%]": 74.3}
{"SMILES": "Cc1ccc(-c2sc3cc(Br)ccc3c2-c2ccc(C)cc2)cc1", "remaining compound [%]": "> 99.9"}
{"SMILES": "CN1CCN(c2nc(O)c3c(-c4ccsc4)ccnc3n2)CC1", "remaining compound [%]": 54.4}
{"SMILES": "CC(C)(C)c1cnnn1-c1ccc(C(=O)COC(=O)c2ccccc2)cc1", "remaining compound [%]": "< 1"}
{"SMILES": "Cc1cnn(C2CCCC2)c1NC(=O)N1CCC[C@H]1c1nc(C(C)C)no1", "remaining compound [%]": 45.1}
{"SMILES": "CC(C)(C)C(=O)N1CCC(C(=O)OCc2ccc(C(N)=O)cc2)CC1", "remaining compound [%]": 0.0507}
{"SMILES": "Cc1ccc(S(=O)(=O)c2cn(CC3CCCO3)c(=O)n(-c3ccccc3)c2=O)cc1 (centres unmarked)", "remaining compound [%]": 5.3}
{"SMILES": "CC(C)(CCS(C)(=O)=O)CNc1cc(C#N)nc2ccccc12", "remaining compound [%]": 30.3}
{"SMILES": "C/C(=C\\c1ccc(C(=O)O)cc1)CN1CCN(c2ccccn2)CC1", "remaining compound [%]": 53}
{"SMILES": "Cc1ccc(S(=O)(=O)NCc2ccccc2)c(C)c1N(C)S(=O)(=O)c1ccccc1", "remaining compound [%]": 4.56}
{"SMILES": "CC1CN(Cc2cncs2)CCN1CC(C)(C)O (centres unmarked)", "remaining compound [%]": 32.7}
{"note": "Some of these lines once more (series 1):"}
{"target": "CSNK2A1 (Homo sapiens, UniProt P68400)", "remaining activity": "13.1%"}
{"target": "CSNK1A1 (Homo sapiens, UniProt P48729)", "remaining activity": "79.3%"}
{"target": "NEK4 (Homo sapiens, UniProt P51957)", "remaining activity": "54.6%"}
{"target": "Cyclin-dependent kinase 9, with cyclin T1 (CDK9, Homo sapiens, UniProt P50750)", "remaining activity": "58.9%"}
{"target": "MAPK12 (Homo sapiens, UniProt P53778)", "remaining activity": "103%"}
